Measured values gathered from unrelated publications.
Every numbered part comes from another study and shows a few of its results, in no order.

Set 1
Target: RING finger protein unkempt homolog, zinc fingers 1-6, GST-SBP tag (UNK, Homo sapiens, UniProt Q9C0B0, residues 30-357)
Method: RNA Bind-n-Seq
Molecule type: RNA
Matrix: in vitro
Concentration: not given
Notes: RNA with constant flanks, ends assumed
Baseline: input RNA pool
Reading: higher = stronger binding
Quantity: bound/input enrichment
Residues (chain): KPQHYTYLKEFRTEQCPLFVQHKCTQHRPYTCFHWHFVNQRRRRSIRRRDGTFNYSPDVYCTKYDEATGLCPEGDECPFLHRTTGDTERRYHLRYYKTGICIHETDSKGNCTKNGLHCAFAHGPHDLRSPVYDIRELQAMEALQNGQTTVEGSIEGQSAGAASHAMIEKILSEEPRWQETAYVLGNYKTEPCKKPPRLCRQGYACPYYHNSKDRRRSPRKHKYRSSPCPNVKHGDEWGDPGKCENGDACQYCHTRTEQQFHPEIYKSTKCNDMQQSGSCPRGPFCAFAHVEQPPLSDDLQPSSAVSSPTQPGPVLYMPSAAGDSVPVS
GGGAGUUCUACAGUCCGACGAUCCUGAAAGCUGCCAUUGCAGAAUGUGAAGAAGUUAGAAGAAAAAGUGAACUGUUUAACCCUGUCCGUUCCGACUGUAAGCUAAGGCAAAAAGCAAUUGCAGAAGUUGAUGUGGGUACAGAUCAACAGAGGAUUGAGCAUCA: 0.313 ratio
GGGAGUUCUACAGUCCGACGAUCAAGAUCCUUUCGGUAAAUGGCCAAGACCUAAAGAACCUGCUGCACCAGGAUGCUGCCGACCUCUUUCGUAAUGCAGGCUAUGCUGUGUCUCUGAGAGUGCAGCACAGGUUACAGGUGCAGCAACAGAGGAUUGAGCAUCA: 0.0799 ratio
GGGAGUUCUACAGUCCGACGAUCCCCCCUCGGAAGAAAAGGGCCCGGGCAGACCCCACUGUUGAAAGUGAGGAGGCGUUUAAGAACCGAAUGGAGGUUAAAGUGAAGAUUCCUGAAGAAUUAAAACCAUGGCUUGUUGAGGACCAACAGAGGAUUGAGCAUCA: 0.426 ratio
GGGAGUUCUACAGUCCGACGAUCCCUGUUCGAGGCAGCUAUCUUACAGACUGCAUGAAUGUAAGAGUAGGAAUGGGGUGGGUGUCCGGAUCAUUCGGGAUCUUCGACACUUGAAACAAAAUUACACCUGGGAGCUGCAGCCAGCAACAGAGGAUUGAGCAUCA: 0.286 ratio

Set 2
Target: Sal-like protein 4, full length isoform B (SALL4, Homo sapiens, UniProt Q9UJQ4-2, residues 1-616)
Method: universal PBM
Molecule type: double-stranded DNA, one strand shown
Matrix: in vitro
Concentration: not given
Notes: 8-mer, flanks averaged, mean of replicates
Reading: higher = stronger binding
Quantity: E-score
Residues (chain): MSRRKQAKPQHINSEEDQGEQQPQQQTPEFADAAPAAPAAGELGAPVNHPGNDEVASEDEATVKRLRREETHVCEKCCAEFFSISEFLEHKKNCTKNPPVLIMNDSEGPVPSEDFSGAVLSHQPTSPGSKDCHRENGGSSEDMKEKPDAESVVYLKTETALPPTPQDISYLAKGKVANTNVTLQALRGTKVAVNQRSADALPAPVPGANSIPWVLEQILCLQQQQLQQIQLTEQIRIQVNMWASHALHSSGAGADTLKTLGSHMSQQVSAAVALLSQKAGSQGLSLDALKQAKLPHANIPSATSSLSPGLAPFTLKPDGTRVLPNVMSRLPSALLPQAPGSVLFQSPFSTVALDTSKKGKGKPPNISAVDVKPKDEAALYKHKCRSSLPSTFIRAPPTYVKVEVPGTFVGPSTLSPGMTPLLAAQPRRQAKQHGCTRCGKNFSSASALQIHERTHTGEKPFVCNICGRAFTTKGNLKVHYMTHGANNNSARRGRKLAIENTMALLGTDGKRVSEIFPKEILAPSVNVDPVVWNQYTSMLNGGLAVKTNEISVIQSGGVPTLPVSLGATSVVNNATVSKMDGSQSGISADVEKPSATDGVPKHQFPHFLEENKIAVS
AGCGGACG: -0.319
GGGATGGA: -0.232
AGAGCATG: -0.0964
AAACGGGA: -0.0459
ATACATTG: 0.261
ATAAAAAA: 0.381
GCCCGTGA: -0.271
ACAAAGCT: 0.117
CGTCAAGA: -0.151
ATAATTTA: 0.424
GATCGATC: -0.251
GCGTTGAA: -0.14
AACTTAGC: -0.00986
CTCAGCAG: -0.3

Set 3
Target: Centromere-binding protein 1, full length, N-terminal tag (CBF1, Saccharomyces cerevisiae, UniProt P17106, residues 1-351)
Sequence of UniProt P17106 (whole entry, looked up): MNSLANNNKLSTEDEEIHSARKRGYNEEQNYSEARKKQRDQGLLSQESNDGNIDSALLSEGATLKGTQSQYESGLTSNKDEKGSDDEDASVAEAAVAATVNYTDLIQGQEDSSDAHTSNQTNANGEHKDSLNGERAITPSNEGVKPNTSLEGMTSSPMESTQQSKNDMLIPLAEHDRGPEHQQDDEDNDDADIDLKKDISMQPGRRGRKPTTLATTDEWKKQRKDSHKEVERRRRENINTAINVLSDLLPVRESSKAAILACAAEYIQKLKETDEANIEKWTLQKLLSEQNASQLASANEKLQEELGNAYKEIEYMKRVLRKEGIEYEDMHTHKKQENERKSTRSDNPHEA
Method: protein-binding microarray
Molecule type: double-stranded DNA, one strand shown
Matrix: in vitro
Concentration: 0.8 µM
Notes: whole 60-bp probe, no competitor
Reading: higher = stronger binding
Quantity: fluorescence intensity
Shared flanks, not repeated: … GTCTTGATTCGCTTGACGCTGCTG
GAATACTGGAAGCACCACGTAATAGTGGAAAAGTAG: 532 a.u.
GAACTTGAAATGGACTATGTCACCATTAGATCCTAG: 520 a.u.
CTAATTACTATTGCGTACATCAGCAATCATCCATTC: 534 a.u.
TGTACGAAGCTATTGATCATTCCTATAGTAGTTAGG: 528 a.u.
GAAAGGATGCTGAATGTCACCTCTTGCAACAAATAG: 543 a.u.
CTAGGTTCCTTCAGCATCAGAACAGATCACAAATTC: 551 a.u.
GAAAATGCCTCGGGAGCCACCACGTTTATTTTTTAG: 573 a.u.
CTATCTAGTTTGGGTCACCTGATGCAGAATTGGTTC: 10000 a.u.
CTAATCGTTCTCCGTGAGGTGGATTTACTGTTATTC: 509 a.u.
TGTACGAAGCTATGGCATGTGCATATAGTAGTTAGG: 655 a.u.
CTAGTCCGATACCATCACCTTCAATGAACGAGATTC: 469 a.u.
GAACGGATCATCCACCACGAACCCCTATCCTTTTAG: 503 a.u.
GAAATCTTCCACGCTGATGTAAAGTGTAGTTCTTAG: 514 a.u.

Set 4
Target: Histone acetyltransferase KAT6A, winged helix 1, GST fusion (KAT6A, Homo sapiens, UniProt Q92794, residues 1-85)
Method: protein binding microarray
Molecule type: double-stranded DNA, one strand shown
Matrix: in vitro
Concentration: not given
Notes: 8-mer, flanks averaged, mean of 2 arrays, mostly near background
Baseline: not given
Reading: higher = stronger binding
Quantity: E-score
Target sequence (chain): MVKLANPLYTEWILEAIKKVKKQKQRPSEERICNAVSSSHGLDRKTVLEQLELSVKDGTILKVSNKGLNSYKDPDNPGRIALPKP
AATACGCG: 0.211
GGACTTCA: -0.0349
GTATTAAA: 0.038
AAGTCACA: -0.124
CTTAAGTC: -0.239
CTCATGCC: -0.0416
CCCGTGGC: 0.318
CTAAAGAC: 0.0125
CACGGAAA: 0.231
ACTTGAGA: -0.177
ACGCGGCT: 0.382
TGGGATAA: -0.279

Set 5
Target: RNA binding protein fox-1 homolog 2, RRM domain, GST-SBP tag (RBFOX2, Homo sapiens, UniProt O43251-10, residues 100-194)
Method: RNA Bind-n-Seq
Molecule type: RNA
Matrix: in vitro
Concentration: 365 nM
Notes: natural RNA segment, single round, ends assumed
Baseline: no-protein control
Reading: higher = stronger binding
Quantity: RBNS enrichment (R)
Shared flanks, not repeated: GGGAGUUCUACAGUCCGACGAUC … UGGAAUUCUCGGGUGCCAA
Target sequence (chain): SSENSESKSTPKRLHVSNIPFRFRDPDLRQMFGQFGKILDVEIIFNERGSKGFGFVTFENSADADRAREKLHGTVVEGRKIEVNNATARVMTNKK
UGUUUGAGGUGGAGCUGGUGUCCCGGGAGGAUGGGCUGCCCACAGGCUACCUGUUUGUGUGGCACAAGGACCCUCCUGCCAACCUGUUUGAAGACAUGGACCUCAACAAG: 0.272
AAUUCUUAAAAGUUGAGACCAAUUGUAACCAGUUUAACUCAUUUUAGAUGACCUUUUUUUCUUAUAAUAUUUGCAAGUGACAAGUUUGAAAACAAAGCAAGAUCAGUGCA: 2.92
GCCCCAUCCCUGUCCUCAUGACCCCUCGUCCACCCCCCACACACACUAUAAGGCUGAGGGCUGCCAGCAGCCCCGUCUGCCCACCAUUCCCGGCCGUGGACCAUAGUCGG: 0.491
GGGGCUGUACUGGGGACUGCUCGGAUGAUCUUUCUUAGUGCUACUUCUUUCAGCUGUCCCUGUAGCGACAGGUCUAAGAUCUGACUGCCUCCUCCUUUCUCUGGCCUCUU: 0.666
AAACUAUCCUGGACACUCCCUCCUGCUUCCACCAAUUUUUUUCUCACCCCCUUUUCAAAAAUUGAAAACUCUAUGAGUGUCUUUUUGAGACCAUAAAGCAGACUUUAGUA: 0.801
CCGAGUUCUUAAAUCCAGGUAGGGAACUCACUCUUCUUUCUUCUCUGGACCUAAUUGGGCAUUGGGCUUUAGUGAGACCACAGACCAGGCCCGUCUCUCCUGUAGGCUUU: 0.414

Set 6
Target: Ras GTPase-activating protein-binding protein 1, RRM domain (G3BP1, Homo sapiens, UniProt Q13283)
Sequence of UniProt Q13283 (whole entry, looked up): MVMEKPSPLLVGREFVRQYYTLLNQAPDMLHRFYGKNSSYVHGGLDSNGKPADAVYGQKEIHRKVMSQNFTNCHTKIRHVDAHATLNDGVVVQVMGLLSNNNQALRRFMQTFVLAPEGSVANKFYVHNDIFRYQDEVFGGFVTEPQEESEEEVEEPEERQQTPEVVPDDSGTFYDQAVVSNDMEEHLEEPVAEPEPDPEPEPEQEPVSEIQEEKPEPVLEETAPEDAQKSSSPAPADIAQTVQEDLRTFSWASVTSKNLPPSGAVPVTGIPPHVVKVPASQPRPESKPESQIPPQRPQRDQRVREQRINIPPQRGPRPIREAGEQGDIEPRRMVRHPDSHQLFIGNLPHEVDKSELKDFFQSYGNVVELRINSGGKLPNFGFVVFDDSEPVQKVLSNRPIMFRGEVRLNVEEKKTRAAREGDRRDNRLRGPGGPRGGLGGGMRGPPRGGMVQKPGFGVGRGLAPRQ
Method: RNA Bind-n-Seq
Molecule type: RNA
Matrix: in vitro
Concentration: 1 µM
Notes: whole 134-nt RNA, ends assumed
Added: 150 mM KCl
Baseline: input library
Reading: higher = stronger binding
Quantity: log2 enrichment
Shared flanks, not repeated: GGGAGUUCUACAGUCCGACGAUC … UGGAAUUCUCGGGUGUCAAGG
CUCAAGUCCUGUGCUACACAUCGUAUGUACCGAAUCGGCCGGGGCCGGCCGGGAAAGUAUUAUGUUACGCCGUUCGGAUCUGCACUUCCA: -0.395
UGGCCCUGGUGGCAUGCGGGGAUGAAGAGGUGGCCUCAUGGAUCGUGGUGGUCCCGGUGGAAUGUUCAGAGGUGGCCGUGGUGGAGACAG: 0.727
AGUCCUGUGCUACACAUCGUAUGUACCGAAUCGGAAAAAAAGGUUUUUGGAAAAAGGAAAGUAUUAUGUUACGCCGUUCGGAUCUGCACU: -0.211
UGCUUGUUCUGGAGUGAUCUUCUGACUGGAAAAGAACUAUGUCAUGGAUCAAGGAAGGAGAGCUGUCACUUUGGGAGCGGUUCUGUGCCA: 0.26
CACAGACAACACGCACCCACACAGACACAGAGGGAAGGGGUUGGGAUGGGGACAGGGUGCACAGCAGGGCGGGGUAGGACCCCAGCCCAU: -0.337
CACAAAAAACACGCACCCACACAGACACAGAGGGAAGGGGUUGGGAUGGGGACAGGGUGCACAGCAGGGCGGGGUAGGACCCCAGCCCCU: -0.229

Set 7
Target: Interferon regulatory factor 5, full length, phosphomimetic (IRF5, Homo sapiens, UniProt Q13568-2, residues 1-514, S451D/S453D/S456D/S462D)
Method: protein-binding microarray
Molecule type: double-stranded DNA, one strand shown
Matrix: in vitro
Concentration: 940 nM top
Notes: 60-bp whole probe
Added: salmon DNA 0.4 mg/ml
Baseline: random background probes
Reading: higher = stronger binding
Quantity: fitted relative affinity
Shared flanks, not repeated: GCCTAGCAC … GTCTTGATTCGCTTGACGCTGCTG
TTAGATCTCAGACTGGATGAGTGCTAG: -0.128 z-score
GACGGACTGGACACTGGGTACGTGCTA: -0.565 z-score
TTAGATATCCTTCTCCTTTAGTGCTAG: 0.538 z-score
TTAGGACAGGGTATCGGTTAGTGCTAG: 2.11 z-score
TTAGGACTAGACACTGGGTTAGTGCTA: -0.298 z-score
CCGCATATCGGGGTGCGCCCGGTGCTA: -0.212 z-score
GTAAATCTTTTTCCCTATTAGTGCTAG: 1.74 z-score
TTAGGTTTCGACTAGCGGTTAGTGCTA: 9.87 z-score
GACGGTTCCGGTTTCGGGTCGTGCTAG: 8.43 z-score
TCAGTTTTCTCCATGGAACTGTGCTAG: 0.65 z-score
GGATCTTGCAGATGTCGCTGGGTGCTA: -0.549 z-score
GACGGTATCGTTATCGGGACGTGCTAG: 4.4 z-score
GAATGAATGGACATTTCTTCGTGCTAG: -0.347 z-score
CTATTTTTCACCTGCACTCAGTGCTAG: 1.36 z-score
GACGGTTTCGACTTTCGGGCCGTGCTA: 6.79 z-score

Set 8
Target: Transcription factor SOX-2, HMG box (SOX2, Homo sapiens, UniProt P48431, residues 19-118)
Sequence of UniProt P48431 (19-118, looked up): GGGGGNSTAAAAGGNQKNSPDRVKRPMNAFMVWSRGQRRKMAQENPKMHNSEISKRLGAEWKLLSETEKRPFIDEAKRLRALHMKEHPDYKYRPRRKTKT
Method: protein-binding microarray
Molecule type: double-stranded DNA, one strand shown
Matrix: in vitro
Concentration: not given
Notes: k-mer, scored over probes, only values ≥0.25
Reading: higher = stronger binding
Quantity: E-score
AATTTGC: 0.267
CAATACC: 0.293
ACAAAAG: 0.393
ATAATAA: 0.401
AGAATAT: 0.278
AATTTTC: 0.256
AAGGCCG: 0.315
CAATGGC: 0.341
GAATAGA: 0.327
AATTAAC: 0.306
TAATGAA: 0.286
ACAATAA: 0.452
CCTATTC: 0.271
AGATTGA: 0.259
AACAAAA: 0.356
AATTGAT: 0.379
CTGATTA: 0.317
ACAAATG: 0.268

Some of these lines once more (set 4):
AATACGCG: 0.211
GGACTTCA: -0.0349
GTATTAAA: 0.038
AAGTCACA: -0.124
CTTAAGTC: -0.239
CTCATGCC: -0.0416
CCCGTGGC: 0.318
CTAAAGAC: 0.0125
CACGGAAA: 0.231
ACTTGAGA: -0.177
ACGCGGCT: 0.382
TGGGATAA: -0.279
